Experimental data collected from several papers.
± marks the error that the study gave.
Target: Cholinesterase (BCHE, Equus caballus, UniProt P81908)

Structure (SMILES)	observed	action	method	pH	notes	IC50 [µM]
COC(=O)C1=CO[C@@H](O)[C@@H]2C(Cn3cc(-c4ccc(F)cc4)nn3)=CC[C@H]12					horse serum enzyme	281 ± 2.7
CCN(CCCCOc1c(OC)cc(C(=O)N2CCC(Cc3ccccc3)CC2)cc1OC)Cc1ccccc1	enzyme activity	inhibitor	Ellman			0.77
CC(=O)C(Cl)=NNc1ccc2c(C)cc(=O)oc2c1	enzyme activity	inhibitor	Ellman	pH 8		458
Cc1nc2ccc(NCc3cn(CCCOC4=CC(=O)c5ccccc5C4=O)nn3)cc2nc1C	enzyme activity	inhibitor	Ellman			> 100
O=C(COc1ccc(Sc2ccc(OCC(=O)N/N=C/c3cccc(O)c3)cc2)cc1)N/N=C/c1cccc(O)c1	enzyme activity	inhibitor	Ellman			60.3
O=C1c2ccccc2NC(c2cc(Cl)ccc2O)N1N=Cc1cc(Cl)ccc1O (centres unmarked)	enzyme activity	inhibitor	Ellman			4.6
COc1cc(O)cc(-c2cc3ccc(O)c(C/C=C(\C)CCC=C(C)C)c3o2)c1CC=C(C)C	enzyme activity	inhibitor				19.1
COc1ccc(/C=N/NC(=O)COc2ccc(Sc3ccc(OCC(=O)N/N=C/c4ccc(OC)cc4OC)cc3)cc2)c(OC)c1	enzyme activity	inhibitor	Ellman			55.4
CCCN1CCN(C(=NNc2ccc3c(C)cc(=O)oc3c2)C(C)=O)CC1	enzyme activity	inhibitor	Ellman	pH 8		222
O=C(/C=C/c1ccccc1)c1cc2ccccc2oc1=O	enzyme activity	inhibitor				> 40
COc1cc(/C=C/C(=O)OC[C@H]2O[C@@H](Oc3c(-c4ccc(O)cc4)oc4cc(O)cc(O)c4c3=O)[C@H](O)[C@@H](OC(=O)/C=C/c3ccc(O)cc3)[C@@H]2O)ccc1O	enzyme activity	inhibitor	Ellman			113
O=C1C=C(OCCCCn2cc(CNc3ccc4nccnc4c3)nn2)C(=O)c2ccccc21	enzyme activity	inhibitor	Ellman			35.5
CN1CCc2cc3c(c4c2C1C(O)c1ccccc1-4)OCO3 (single isomer, unassigned; (-))	enzyme activity	inhibitor	Ellman			7.42 ± 0.16
O=C(/C=C/c1cccc(Cl)c1)c1cc2ccccc2oc1=O	enzyme activity	inhibitor				11.8
COc1ccc2c(c1)CC1c3c(cc4c(c3-2)OCO4)CCN1C (single isomer, unassigned; (-))	enzyme activity	inhibitor	Ellman			16.6 ± 0.54
O=C(/C=C/c1ccccc1F)c1cc2ccccc2oc1=O	enzyme activity	inhibitor				> 40
CC(C)=CCCC1(C)C=Cc2c(ccc3cc(-c4cc(O)cc(O)c4CC=C(C)C)oc23)O1 (centres unmarked)	enzyme activity	inhibitor				1.51
Cc1nc(-c2ccc(Cl)cc2)nc2sc3c(=O)n(CCN4CCOCC4)cnc3c12	enzyme activity	inhibitor	Ellman			149
CCCC(=O)Oc1ccc2c(OC(=O)CCC)c3ccccc3cc2c1O	enzyme activity	inhibitor	Ellman	pH 8		17.2

Structure (SMILES)	observed	action	method	pH	notes	IC50 [µM]
O=C1C=C(OCCCCCCCCn2cc(CNc3ccc4nccnc4c3)nn2)C(=O)c2ccccc21	enzyme activity	inhibitor	Ellman			0.22
COc1cc2c(cc1O)CCN1Cc3c(ccc(O)c3OC)C[C@@H]21	enzyme activity	inhibitor	Ellman			109.3 ± 0.97
CC(=O)C1=C(C)NC(SCCCSc2nnc(Cc3ccccc3Nc3c(Cl)cccc3Cl)n2-c2ccc(Cl)c(Cl)c2)=NC1c1ccc([N+](=O)[O-])cc1 (centres unmarked)	enzyme activity	inhibitor	Ellman			31.9
O=C(O)Cc1cccc(OC(=O)NCCCCCn2ccc3ccc(F)cc32)c1	enzyme activity	inhibitor	HPLC			> 10
COc1cccc2c1C(O)C1c3c(cc4c(c3-2)OCO4)CCN1C (single isomer, unassigned; (-))	enzyme activity	inhibitor	Ellman			5.87 ± 0.06
C=CCc1ccc(O)c(OC)c1	enzyme activity	inhibitor	Ellman			387
O=C(COc1ccc(Sc2ccc(OCC(=O)N/N=C/c3ccc(Cl)cc3Cl)cc2)cc1)N/N=C/c1ccc(Cl)cc1Cl	enzyme activity	inhibitor	Ellman			75.1
COc1ccc2c(c1)C(=O)c1nccc3cc4c(c-2c13)OCO4	enzyme activity	inhibitor	Ellman			13.6 ± 0.3
O=C(/C=C/c1cccc(Br)c1)c1cc2ccccc2oc1=O	enzyme activity	inhibitor				> 40
O=Cc1ccc(/C=N/NC(=O)COc2ccc(Sc3ccc(OCC(=O)N/N=C/c4ccc(C=O)cc4)cc3)cc2)cc1	enzyme activity	inhibitor	Ellman			93.3
CC(=O)C(=NNc1ccc2c(C)cc(=O)oc2c1)N1CCNCC1	enzyme activity	inhibitor	Ellman	pH 8		367
CCOc1cc(/C=N/NC(=O)COc2ccc(Sc3ccc(OCC(=O)N/N=C/c4ccc(O)c(OCC)c4)cc3)cc2)ccc1O	enzyme activity	inhibitor	Ellman			239
O=C(CNC(=S)N/N=C/c1ccc([N+](=O)[O-])cc1)c1ccccc1Cl	enzyme activity	inhibitor	Ellman			145
CC(=O)C(=NNc1ccc2c(C)cc(=O)oc2c1)N1CCSCC1	enzyme activity	inhibitor	Ellman	pH 8		7.6
NNC(=O)COc1ccc(Sc2ccc(OCC(=O)NN)cc2)cc1	enzyme activity	inhibitor	Ellman			21.8
O=C1c2ccccc2NC(c2cc(Br)ccc2O)N1/N=C/c1cc(Br)ccc1O (centres unmarked)	enzyme activity	inhibitor	Ellman			5.7
COc1ccc([C@@H]2N=NC(NCCc3c[nH]c4ccc(C)cc34)=NC2=O)cc1	enzyme activity	inhibitor	Ellman			128
COCc1cc(C)nc(SCC[N+](C)(C)CC(=O)Nc2cccc(C(F)(F)F)c2)c1C#N		inhibitor				5.5
O=C(/C=C/c1ccccc1Br)c1cc2ccccc2oc1=O	enzyme activity	inhibitor				> 40

Structure (SMILES)	observed	action	method	pH	notes	IC50 [µM]
COc1ccc(C2N=C(SCCCSc3nnc(Cc4ccccc4Nc4c(Cl)cccc4Cl)n3-c3ccc(Cl)c(Cl)c3)NC(C)=C2C(C)=O)cc1 (centres unmarked)	enzyme activity	inhibitor	Ellman			0.94
COc1cc(/C=C/C(=O)NC(C)C(N)=O)ccc1OCc1ccccc1 (centres unmarked)						52 ± 1.42
CC(=O)C1=C(C)NC(SCCCSc2nnc(Cc3ccccc3Nc3c(Cl)cccc3Cl)n2-c2ccc(Cl)c(Cl)c2)=NC1c1ccccc1 (centres unmarked)	enzyme activity	inhibitor	Ellman			11.2
COC(=O)CCC1NC(C(C)=O)=NN(c2ccc3c(C)cc(=O)oc3c2)C1=O (centres unmarked)	enzyme activity	inhibitor	Ellman	pH 8		3.4
COC(=O)C1=CO[C@@H](OC(C)=O)[C@@H]2C(Cn3cc(CCN4C(=O)c5ccccc5C4=O)nn3)=CC[C@H]12					horse serum enzyme	203 ± 1.7
CCCC(=O)Oc1ccc2c(O)c3ccccc3cc2c1O	enzyme activity	inhibitor	Ellman	pH 8		> 250
O=C1C=C(OCCCCCCn2cc(CNc3ccc4nccnc4c3)nn2)C(=O)c2ccccc21	enzyme activity	inhibitor	Ellman			1.4
CC(=O)c1c(O)ccc2ccc(=O)oc12	enzyme activity	inhibitor	Ellman			155
C=CCN1CCC(N2CCCC2=O)c2cc(Br)ccc21 (centres unmarked)	enzyme activity	inhibitor	Ellman			< 32
CCCCCCCC(=O)Oc1ccc2c(OC(=O)CCCCCCC)c3ccccc3cc2c1OC(=O)CCCCCCC	enzyme activity	inhibitor	Ellman	pH 8		> 250
COc1cc2c(cc1O)C1Cc3ccc(O)c(OC)c3C[N+]1(C)CC2 (centres unmarked)	enzyme activity	inhibitor	Ellman			13.5 ± 0.59
O=C(COc1ccc(Sc2ccc(OCC(=O)N/N=C/c3ccc(O)cc3)cc2)cc1)N/N=C/c1ccc(O)cc1	enzyme activity	inhibitor	Ellman			142
COC(=O)C1=CO[C@@H](OC(C)=O)[C@@H]2C(Cn3cc(CCBr)nn3)=CC[C@H]12					horse serum enzyme	31.8
COc1cc(CCC(=O)N2CCC(Cc3ccccc3)CC2)ccc1OCCCCN1CCCCC1	enzyme activity	inhibitor	Ellman			0.89
O=C1c2ccccc2NC(c2cc([N+](=O)[O-])ccc2O)N1/N=C/c1cc([N+](=O)[O-])ccc1O (centres unmarked)	enzyme activity	inhibitor	Ellman			17.8
CC(=O)C1=NN(c2ccc3c(C)cc(=O)oc3c2)C(=O)C(Cc2ccccc2)N1 (centres unmarked)	enzyme activity	inhibitor	Ellman	pH 8		442
CCN(CC)c1ccc(/C=N/NC(=O)COc2ccc(Sc3ccc(OCC(=O)N/N=C/c4ccc(N(CC)CC)cc4)cc3)cc2)cc1	enzyme activity	inhibitor	Ellman			109
COC(=O)C1=CO[C@@H](O)[C@@H]2C(Cn3cc(-c4ccccc4)nn3)=CC[C@H]12					horse serum enzyme	537 ± 2

Excerpt of the above:
Structure (SMILES)	observed	action	method	pH	notes	IC50 [µM]
CC(=O)C1=C(C)NC(SCCCSc2nnc(Cc3ccccc3Nc3c(Cl)cccc3Cl)n2-c2ccc(Cl)c(Cl)c2)=NC1c1ccccc1 (centres unmarked)	enzyme activity	inhibitor	Ellman			11.2
O=C(O)Cc1cccc(OC(=O)NCCCCCn2ccc3ccc(F)cc32)c1	enzyme activity	inhibitor	HPLC			> 10
CC(=O)C1=NN(c2ccc3c(C)cc(=O)oc3c2)C(=O)C(Cc2ccccc2)N1 (centres unmarked)	enzyme activity	inhibitor	Ellman	pH 8		442
COC(=O)C1=CO[C@@H](O)[C@@H]2C(Cn3cc(-c4ccccc4)nn3)=CC[C@H]12					horse serum enzyme	537 ± 2
